Measurements pooled from the literature.
Lines come from different studies, so protocols differ. ± gives the spread as reported. Square brackets hold non-standard residues; d marks the D form. Ends that are not written are not given here.
B1: enzyme N488A (Limosilactobacillus reuteri, UniProt Q8GP32); chain SADTNIENNDSSTVQVTTGDNDIAVKSVTLGSGQVSAASDTTIRTSANANSASSAANTQNSNSQVASSAAITSSTSSAASSNNTDSKAAQENTNTAKNDDTQKAAPANESSEAKNEPAVNVNDSSAAKNDDQQSSKKNTTAKLNKDAENVVKKAGIDPNSLTDDQIKALNKMNFSKAAKSGTQMTYNDFQKIADTLIKQDGRYTVPFFKASEIKNMPAATTKDAQTNTIEPLDVWDSWPVQDVRTGQVANWNGYQLVIAMMGIPNQNDNHIYLLYNKYGDNELSHWKNVGPIFGYNSTAVSQEWSGSAVLNSDNSIQLFYTRVDTSDNNTNHQKIASATLYLTDNNGNVSLAQVANDHIVFEGDGYYYQTYDQWKATNKGADNIAMRDAHVIEDDNGDRYLVFEASTGLENYQGEDQIYNWLNYGGDDAFNIKSLFRILSNDDIKSRATWAAAAIGILKLNKDEKNPKVAELYSPLISAPMVSDEIERPNVVKLGNKYYLFAATRLNRGSNDDAWMNANYAVGDNVAMVGYVADSLTGSYKPLNDSGVVLTASVPANWRTATYSYYAVPVAGKDDQVLVTSYMTNRNGVAGKGMDSTWAPSFLLQINPDNTTTVLAKMTNQGDWIWDDSSENLDMIGDLDSAALPGERDKPVDWDLIGYGLKP
Sequence of UniProt P27487 (whole entry, looked up): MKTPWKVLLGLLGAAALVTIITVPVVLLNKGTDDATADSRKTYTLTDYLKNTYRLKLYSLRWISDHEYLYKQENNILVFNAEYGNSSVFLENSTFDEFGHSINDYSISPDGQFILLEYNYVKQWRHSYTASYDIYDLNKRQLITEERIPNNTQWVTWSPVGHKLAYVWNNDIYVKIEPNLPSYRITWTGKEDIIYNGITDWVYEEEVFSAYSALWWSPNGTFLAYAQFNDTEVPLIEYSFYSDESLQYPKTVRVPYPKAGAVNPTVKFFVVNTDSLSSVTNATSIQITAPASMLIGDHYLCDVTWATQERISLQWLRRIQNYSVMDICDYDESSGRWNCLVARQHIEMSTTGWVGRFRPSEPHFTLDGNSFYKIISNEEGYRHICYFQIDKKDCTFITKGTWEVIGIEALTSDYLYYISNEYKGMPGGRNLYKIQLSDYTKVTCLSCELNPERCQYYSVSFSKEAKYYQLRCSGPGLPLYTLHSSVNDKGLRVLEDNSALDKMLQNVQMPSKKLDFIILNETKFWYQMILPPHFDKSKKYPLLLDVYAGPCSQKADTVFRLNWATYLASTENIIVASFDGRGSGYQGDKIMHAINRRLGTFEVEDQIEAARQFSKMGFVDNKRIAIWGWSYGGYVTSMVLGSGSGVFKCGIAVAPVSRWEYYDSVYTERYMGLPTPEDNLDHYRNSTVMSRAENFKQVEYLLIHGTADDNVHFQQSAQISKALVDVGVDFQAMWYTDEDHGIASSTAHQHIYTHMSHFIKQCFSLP
Sequence of UniProt P00772 (whole entry, looked up): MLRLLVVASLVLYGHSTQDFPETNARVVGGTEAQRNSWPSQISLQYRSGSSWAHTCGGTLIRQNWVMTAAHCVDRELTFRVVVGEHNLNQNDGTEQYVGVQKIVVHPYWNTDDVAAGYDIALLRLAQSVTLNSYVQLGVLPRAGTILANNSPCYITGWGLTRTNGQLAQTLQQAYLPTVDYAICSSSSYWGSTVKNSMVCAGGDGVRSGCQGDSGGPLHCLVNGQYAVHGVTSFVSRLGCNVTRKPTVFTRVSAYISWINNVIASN
Sequence of UniProt O15392 (whole entry, looked up): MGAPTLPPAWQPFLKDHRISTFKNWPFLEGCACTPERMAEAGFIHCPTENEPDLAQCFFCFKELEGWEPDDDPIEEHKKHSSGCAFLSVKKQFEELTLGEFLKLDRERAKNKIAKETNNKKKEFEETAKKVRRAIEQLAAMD

Substance | tested on | assay | test system | setting | scale | measurement | value
CNSRQTDREDELI | – | – | peptide, human polyclonal IgM RF LOP | concentration not given, 5 µg/mL mAb II-481 coated, added: RF at 50% max binding concentration | – | inhibition | 0%
B1 (enzyme N488A) | OC[C@H]1O[C@@](CO)(O[C@H]2O[C@H](CO)[C@@H](O)[C@H](O)[C@H]2O)[C@@H](O)[C@@H]1O | steady-state kinetics | – | pH 5.5, 50 °C, apparent | – | K0.5 | 19000 µM
COc1cccc2c1C(=O)c1c(O)c3c(c(O)c1C2=O)C[C@@](O)(C(=O)CO)C[C@@H]3O[C@H]1C[C@H](NC(=O)[C@H](CC(C)C)NC(=O)[C@H](C)NC(=O)[C@H](CC(C)C)NC(=O)CCNC(=O)CCC(=O)O)[C@H](O)[C@H](C)O1 | – | – | mouse, E0771 tumour-bearing, liver | intravenous, 92 µmol/kg | – | terminal half-life | 20.5 h
CC[C@H]1CN2CCc3cc(OC)c(OC)cc3[C@@H]2C[C@@H]1C[C@@H]1c2cc(OC)c(OC)cc2CCN1C(=O)OCc1ccc(NC(=O)[C@@H]2CCCN2C(=O)[C@H](C)N)cc1 | DPP4 (Homo sapiens, UniProt P27487) | substrate, HPLC-MS | – | 500 µM, 24 h, pH 7.8, 37 °C, 1% DMSO, added: DPPIV 30 nM | – | emetine released | 98%
AR[pT]KQTARKSTG (H3C1 1-12; pT3; pT = C[C@@H](OP(=O)(O)O)[C@H](N)C(=O)O) | BIRC5 1-142 (Homo sapiens, UniProt O15392) | ITC | peptide | pH 7.8, 25 °C, NaCl 50 mM | – | Kd | 29.6 ± 5.4 µM
melittin | – | isothermal titration calorimetry | POPC/POPG LUVs 50:50% | 100 µM, pH 7.0, 40 °C | – | partitioning enthalpy | -10.9 kcal/mol
RmS-3, glycosylated (Rhipicephalus microplus) | CELA1 (Sus scrofa, UniProt P00772) | chromogenic substrate hydrolysis, inhibitor | – | 1 µM | – | protease inhibition | 92.6%
N=C(N)NCCC[C@@H]1NC(=O)[C@H](CCCCNC(=O)CNC(=O)CNC(=O)CNC(=O)CC[C@H](NC(=O)CCOCCOCCOCCOCCNC(=O)c2ccc(NN)nc2)C(=O)NCC(=O)NCC(=O)NCC(=O)NCCCC[C@@H]2NC(=O)[C@@H](Cc3ccccc3)NC(=O)[C@H](CC(=O)O)NC(=O)CNC(=O)[C@H](CCCNC(=N)N)NC2=O)NC(=O)[C@@H](Cc2ccccc2)NC(=O)[C@H](CC(=O)O)NC(=O)CNC1=O [technetium-99m labelled] | – | γ-counting | female athymic nude mice, U-87 MG xenograft, heart | intravenous, 2 h | – | tissue uptake | 1.02 ± 0.13 %ID/g
KCNTATCATQRLANFLVHSSNNFGPILPPTNVGSNTY (Pramlintide; not fully specified (C-terminus, bridges); cysteine pairing not given here; sequence looked up) | – | item: Influenza | peptide, obese or overweight humans | concentration not given, ITT population | – | adverse event incidence | 5.4%
CC[C@H](C)[C@H](NC(=O)[C@H](CCCCN)NC(=O)[C@@H](NC(=O)[C@H](CCC(N)=O)NC(=O)[C@H](CCCNC(=N)N)NC(=O)[C@@H](N)CSSC[C@H](NC(C)=O)C(=O)NCCN(CC(=O)NCCN(CC(=O)NCCN(CC(=O)NCCN(CC(=O)NCCN(CC(=O)NCCN(CC(=O)NCCN(CC(=O)NCCN(CC(=O)NCCN(CC(=O)NCCN(CC(=O)NCCN(CC(=O)NCCN(CC(=O)NCCN(CC(=O)NCCN(CC(=O)NCCN(CC(=O)NCCN(CC(N)=O)C(=O)Cn1cc(C)c(=O)[nH]c1=O)C(=O)Cn1ccc(N)nc1=O)C(=O)Cn1cc(C)c(=O)[nH]c1=O)C(=O)Cn1cnc2c(N)ncnc21)C(=O)Cn1cnc2c(=O)[nH]c(N)nc21)C(=O)Cn1cnc2c(N)ncnc21)C(=O)Cn1ccc(N)nc1=O)C(=O)Cn1cc(C)c(=O)[nH]c1=O)C(=O)Cn1ccc(N)nc1=O)C(=O)Cn1cnc2c(=O)[nH]c(N)nc21)C(=O)Cn1cnc2c(=O)[nH]c(N)nc21)C(=O)Cn1cnc2c(N)ncnc21)C(=O)Cn1ccc(N)nc1=O)C(=O)Cn1ccc(N)nc1=O)C(=O)Cn1ccc(N)nc1=O)C(=O)Cn1cc(C)c(=O)[nH]c1=O)[C@@H](C)CC)C(=O)N[C@@H](Cc1c[nH]c2ccccc12)C(=O)N[C@@H](Cc1ccccc1)C(=O)N[C@@H](CCC(N)=O)C(=O)N[C@@H](CC(N)=O)C(=O)N[C@@H](CCCNC(=N)N)C(=O)N[C@@H](CCCNC(=N)N)C(=O)N[C@@H](CCSC)C(=O)N[C@@H](CCCCN)C(=O)N[C@@H](Cc1c[nH]c2ccccc12)C(=O)N[C@@H](CCCCN)C(=O)N[C@@H](CCCCN)C(=O)O | CEM | cellular uptake, flow cytometry | – | 200 nM, 1 min | – | fluorescence-positive cells | > 90%
COc1cccc2c1C(=O)c1c(O)c3c(c(O)c1C2=O)C[C@@](O)(C(=O)CO)C[C@@H]3O[C@H]1C[C@H](NC(=O)[C@@H]2CCCN2C(=O)CNC(=O)[C@H](CC(C)C)NC(=O)[C@H](C)NC(=O)CP(=O)(O)O)[C@H](O)[C@H](C)O1 | – | – | mouse, E0771 tumour-bearing, kidney | intravenous, 92 µmol/kg | – | terminal half-life | 9 h
N=C(N)NCCC[C@@H]1NC(=O)[C@H](CCCCNC(=O)[C@H](CC(=O)O)NC(=O)[C@H](CC(=O)O)NC(=O)[C@H](CC(=O)O)NC(=O)CC[C@H](NC(=O)CCOCCOCCOCCOCCNC(=O)c2ccc(NN)nc2)C(=O)N[C@@H](CC(=O)O)C(=O)N[C@@H](CC(=O)O)C(=O)N[C@@H](CC(=O)O)C(=O)NCCCC[C@@H]2NC(=O)[C@@H](Cc3ccccc3)NC(=O)[C@H](CC(=O)O)NC(=O)CNC(=O)[C@H](CCCNC(=N)N)NC2=O)NC(=O)[C@@H](Cc2ccccc2)NC(=O)[C@H](CC(=O)O)NC(=O)CNC1=O [technetium-99m labelled] | – | – | athymic nude mice, female, U-87 MG glioma xenograft, tumour and muscle | intravenous, dose not given, 60 min, added: excess RGD2 14 mg/kg co-injected | relative to: tumour over muscle | tumour-to-muscle ratio | 1.8 ± 0.11
TATCAACACTCTTTTCTTTTATGATATTTAATAGTTATTGCAAATTCATTGCTAACTTTCTTAACACGTTTTATAATAAACGGAGAGTTATCCGTTTGTCAATTTTAGAGAATTTTAAGTAGGTGTAATCATGCGAAAAGATGCAAAAGA (dsDNA) | gbaA 1-185 C55S (Staphylococcus aureus COL, UniProt Q5HCX3) | EMSA | double-stranded DNA, one strand shown | – | – | Kd | 0.0152 µM
NSRQTDR | – | – | peptide, human polyclonal IgM RF STR | concentration not given, 5 µg/mL mAb II-481 coated, added: RF at 50% max binding concentration | – | inhibition | 0%
amyloid β-peptide (1–28) | trypsin | substrate, LC-MS | – | 10 µM, 4 h, pH 7.4, added: angiotensin III 20 µM, MINP(A) | – | peptide hydrolysed | 99%

A few entries again:
Substance | tested on | assay | test system | setting | scale | measurement | value
N=C(N)NCCC[C@@H]1NC(=O)[C@H](CCCCNC(=O)[C@H](CC(=O)O)NC(=O)[C@H](CC(=O)O)NC(=O)[C@H](CC(=O)O)NC(=O)CC[C@H](NC(=O)CCOCCOCCOCCOCCNC(=O)c2ccc(NN)nc2)C(=O)N[C@@H](CC(=O)O)C(=O)N[C@@H](CC(=O)O)C(=O)N[C@@H](CC(=O)O)C(=O)NCCCC[C@@H]2NC(=O)[C@@H](Cc3ccccc3)NC(=O)[C@H](CC(=O)O)NC(=O)CNC(=O)[C@H](CCCNC(=N)N)NC2=O)NC(=O)[C@@H](Cc2ccccc2)NC(=O)[C@H](CC(=O)O)NC(=O)CNC1=O [technetium-99m labelled] | – | – | athymic nude mice, female, U-87 MG glioma xenograft, tumour and muscle | intravenous, dose not given, 60 min, added: excess RGD2 14 mg/kg co-injected | relative to: tumour over muscle | tumour-to-muscle ratio | 1.8 ± 0.11
TATCAACACTCTTTTCTTTTATGATATTTAATAGTTATTGCAAATTCATTGCTAACTTTCTTAACACGTTTTATAATAAACGGAGAGTTATCCGTTTGTCAATTTTAGAGAATTTTAAGTAGGTGTAATCATGCGAAAAGATGCAAAAGA (dsDNA) | gbaA 1-185 C55S (Staphylococcus aureus COL, UniProt Q5HCX3) | EMSA | double-stranded DNA, one strand shown | – | – | Kd | 0.0152 µM
